Measured values gathered from unrelated publications.
Each line is one published result; not all experiments were run side by side. Several values in a cell are separate wells, animals, samples, runs or records. ± marks the error that the study gave.
JAK3: Tyrosine-protein kinase JAK3 (JAK3, Homo sapiens, UniProt P52333)
HDAC9: Histone deacetylase 9 (HDAC9, Homo sapiens, UniProt Q9UKV0)
GBA1 R534H: Lysosomal acid glucosylceramidase (GBA1, Homo sapiens, UniProt P04062, R534H)
P4HB: Protein disulfide-isomerase (P4HB, Homo sapiens, UniProt P07237)
HDAC6: Protein deacetylase HDAC6 (HDAC6, Homo sapiens, UniProt Q9UBN7)
Gria1/Gria2: Glutamate receptor AMPA 1/2 (Gria1/Gria2, Rattus norvegicus, UniProt P19490+P19491)
bglA: bglA (Thermotoga maritima, UniProt Q08638)

C[C@H](c1ccccc1)N1C(=O)C2=Nc3cccc(Cl)c3CN2C1=S has an IC50 of 0.539 µM (JAK3; enzyme activity, inhibitor).
Cc1nc2c(F)cc(-c3nc(Nc4ccc(CNC(=O)CCCCCCC(=O)NO)cc4)ncc3F)cc2n1C(C)C has an IC50 of > 10 µM (HDAC9; enzyme activity, inhibitor).
For C#Cc1cnc(Nc2ccnc(CO)c2)nc1Nc1ccccc1-c1nccs1, the IC50 was 0.112 µM (Interleukin-1 receptor-associated kinase 4 (IRAK4, Homo sapiens, UniProt Q9NWZ3); enzyme activity, inhibitor, radiometric).
The IC50 of Cc1cc(C)nc(NC(=S)N2CCN(c3ccncc3)CC2)c1 is reported as > 100 µM (Glycerol-3-phosphate dehydrogenase 1-like protein (GPD1L, Homo sapiens, UniProt Q8N335); enzyme activity; counterscreen).
N#Cc1c(-c2ccco2)cc(-c2cccs2)[nH]c1=O gave an IC50 of ~3 µM and 3.3 µM (Protein FosB, ΔFosB isoform, with JunD (Fosb, Mus musculus, UniProt P13346); ΔFosB/JunD binding to AP-1 DNA, inhibitor, fluorescence polarization; protein, full length 280 nM, no TCEP, with: 25 nM TMR-cdk5 oligonucleotide).
The IC50 of OC[C@H]1[C@@H](O)[C@H](O)[C@@H](O)CN1CCCCCOCC(COCCCCCN1C[C@H](O)[C@@H](O)[C@H](O)[C@@H]1CO)C12CC3CC(CC(C3)C1)C2 (stereo partly shown) is reported as 5 µM (GBA1 R534H; inhibitor, 4MU-β-D-glucopyranoside; with: 4MU-β-D-glucopyranoside).
C[C@@H](O)[C@@H]1NC(=O)[C@H](CCCCN)NC(=O)[C@@H](Cc2c[nH]c3ccccc23)NC(=O)[C@H](Cc2ccc(NC(N)=O)cc2)NC(=O)[C@H](NC(=O)[C@H](Cc2ccccc2)NC(N)=O)CSSC[C@@H](C(=O)N[C@@H](Cc2ccc3ccccc3c2)C(N)=O)NC1=O has an IC50 of > 1 µM (Somatostatin receptor type 1 (SSTR1, Homo sapiens, UniProt P30872); ligand displacement, radioligand).
O=C(/C=C/c1ccccc1)c1ccc2c(c1)OCCCO2 gave an IC50 of 24 µM (P4HB; enzyme activity, inhibitor).
The IC50 of CC[C@H](C)[C@@H]1NC(=O)[C@H](Cc2ccccc2C(F)(F)F)NC(=O)CCSCc2cccc(n2)CSCCCNC(=O)[C@H](CCCCCC(=O)NO)NC1=O is reported as 0.048 µM (HDAC6; enzyme activity, inhibitor, fluorescence).
OC[C@@H]1[C@@H](O)[C@H](O)[C@@H](O)CN1CCCCCOCc1ccc(-c2cc(C(F)(F)F)cc(C(F)(F)F)c2)cc1 gave an IC50 of 0.8 µM (GBA1 R534H; inhibitor, 4MU-β-D-glucopyranoside; with: 4MU-β-D-glucopyranoside).
The IC50 of C/C(=N\Nc1nc(-c2ccc(Cl)cc2)cs1)c1ccc2c(c1)sc1nc(=O)c(C#N)cn12 is reported as 1.54 µM (DNA gyrase (gyrA/gyrB, Escherichia coli, UniProt P0AES4+P0AES6); enzyme activity, inhibitor).
For Cc1nn(-c2cccc(N)c2)c(=O)c2cnc(Nc3ccc(N4CCNCC4)cc3)nc12, the IC50 was > 10 µM (Fibroblast growth factor receptor 3 (FGFR3, Homo sapiens, UniProt P22607, K650E); enzyme activity, inhibitor).
For O=c1c(Oc2ccccc2)c(C(F)(F)F)oc2c(O)c(O)ccc12, the IC50 was 6.35 ± 0.35 µM (Cullin-1, with ROC1; neddylated (Homo sapiens, UniProt Q13616); FRET; 25 min, with: neddylated Cul1).
For OC[C@H]1N[C@H](C/C=C/CCOCC23CC4CC(CC(C4)C2)C3)[C@H](O)[C@@H](O)[C@@H]1O, the IC50 was 0.25 µM (GBA1 R534H; inhibitor, 4MU-β-D-glucopyranoside; with: 4MU-β-D-glucopyranoside).
Nc1ccc(-c2ccc(F)cc2)cc1NC(=O)C1CCOCC1 gave an IC50 of > 33.3 µM (HDAC9; enzyme activity, inhibitor).
For COc1cccc(/C=C/C(=O)c2ccc(Cl)c(Cl)c2)c1OC, the IC50 was 78 µM (P4HB; enzyme activity, inhibitor).
The IC50 of CC[C@H](C)C(=O)O[C@H]1C[C@@H](C)C=C2C=C[C@H](C)[C@H](CC[C@@H]3CC=CC(=O)O3)[C@H]21 is reported as 0.95 µM (Cystic fibrosis transmembrane conductance regulator (CFTR, Homo sapiens, UniProt P13569); apical chloride current, inhibitor; T84, basolaterally permeabilized; with: forskolin, phosphatase inhibitors 1 mM).
CC(C)C[C@H](NC(=O)[C@H](Cc1ccc(CN)cc1)NC(=O)[C@H](Cc1ccccc1)N=[N+]=[N-])C(=O)N[C@@H](CC1CCCC2CCCCC21)C(=O)[C@@]1(C)CO1 (stereo partly shown) has an IC50 of > 10 µM (Proteasome subunit beta type-8 (PSMB8, Homo sapiens, UniProt P28062); enzyme activity, inhibitor; lysate).
The IC50 of O=C(/C=C/c1ccccc1)c1ccc2ccccc2c1 is reported as 8.4 µM (P4HB; enzyme activity, inhibitor).
For O=C(O)Cc1cc2c(cc1C(=O)c1cccc(Cl)c1)OCO2, the IC50 was 4.17 µM (Gria1/Gria2; ion current, antagonist, patch clamp).
For CCCCCCCN1C[C@H](O)[C@@H](O)[C@H](O)[C@H]1CO, the IC50 was 18.5 µM (GBA1 R534H; inhibitor, 4MU-β-D-glucopyranoside; with: 4MU-β-D-glucopyranoside).
The IC50 of Cc1cc(NC2CCN(C)CC2)ccc1-c1cc2c(N3CCC[C@H](C(=O)NCc4ccc(OC(F)(F)F)cc4)C3)ncnc2[nH]1 is reported as 5.95 µM (Fibroblast growth factor receptor 1 (FGFR1, Homo sapiens, UniProt P11362); enzyme activity, inhibitor, mobility shift).
The IC50 of OC[C@@H]1[C@@H](O)[C@H](O)[C@@H](O)c2nccn21 is reported as 0.014 µM (bglA; enzyme activity, inhibitor; pH 6.8, with preincubation).
For O=C(CN1CN(c2ccccc2)C2(CCN(C(=O)c3ccc4[nH]ncc4n3)CC2)C1=O)NCC(F)(F)F, the IC50 was 0.018 µM (Epithelial discoidin domain-containing receptor 1 (DDR1, Homo sapiens, UniProt Q08345); ligand displacement).
COc1cc(/C=C/C(=O)c2cccc(N3CCOCC3)c2)cc(OC)c1OC has an IC50 of > 100 µM (P4HB; enzyme activity, inhibitor).
Cc1cc(C(C)(C)C)ccc1OS(=O)(=O)Oc1cncc(C(=O)NO)c1 has an IC50 of 0.688 µM (HDAC6; enzyme activity, inhibitor, fluorescence).
For O=C(CCc1ccc(CNC(C(=O)O)C2CCCCC2)cn1)NO (stereo not shown), the IC50 was 0.49 µM (HDAC6; enzyme activity, inhibitor).
The IC50 of COC(=O)Cc1cc2c(cc1C(=O)c1ccccc1I)OCO2 is reported as 6.03 µM (Gria1/Gria2; ion current, antagonist, patch clamp).
For Nc1ncc2c(n1)-c1c([nH]c3ccc(C4=CCOCC4)cc13)CCC2, the IC50 was 0.84 µM (Phosphatidylinositol 4-phosphate 5-kinase type-1 gamma (PIP5K1C, Homo sapiens, UniProt O60331); enzyme activity, inhibitor, TR-FRET).
For OC[C@@H]1[C@@H](O)[C@H](O)[C@@H](O)CN1CCCCCOCC1CC1, the IC50 was 51 µM (GBA1 R534H; inhibitor, 4MU-β-D-glucopyranoside; with: 4MU-β-D-glucopyranoside).
With Cc1nn(C)c(C)c1/C=C/C(=O)N1CCC[C@H](Cc2ccc(Nc3ccccn3)nn2)C1 the IC50 was 0.112 µM (Cyclin-dependent kinase 6 (CDK6, Homo sapiens, UniProt Q00534); enzyme activity, inhibitor, ADP detection).
With O=C(NO)c1cccc(OS(=O)(=O)Oc2cccc([N+](=O)[O-])c2)c1 the IC50 was 0.072 µM (HDAC6; enzyme activity, inhibitor, fluorescence).
For OC[C@@H]1[C@@H](O)[C@H](O)[C@@H](O)CN1CCCCCOCc1ccc(-c2cccc(F)c2)cc1, the IC50 was 0.03 µM (GBA1 R534H; inhibitor, 4MU-β-D-glucopyranoside; with: 4MU-β-D-glucopyranoside).
CN1CCC[C@@H]1C(=O)N[C@@H](Cc1ccc(-c2ccccc2)cc1)B(O)O gave an IC50 of > 10 µM (PSMB6/PSMB7 (Homo sapiens, UniProt P28072+Q99436); β1c caspase-like activity, inhibitor; constitutive proteasome, with: Z-LLE-AMC).
For O=S1(=O)O[C@@H]2[C@H](CO)[C@@H](O)[C@H](O)[C@@H](O)[C@@H]2O1, the IC50 was > 100 µM (bglA; enzyme activity, inhibitor; pH 6.8, with preincubation).
O=C(/C=C/c1cccc(Br)c1)c1ccc2c3c(cccc13)CC2 has an IC50 of > 100 µM (P4HB; enzyme activity, inhibitor).
O=C1CCC(N2C(=O)c3ccc(N4CC(C(=O)N5CC(CN6CCC(CNC(=O)c7cccc(-c8noc(C(F)(F)F)n8)c7)(c7nc(-c8ccccc8)cs7)CC6)C5)C4)cc3C2=O)C(=O)N1 (stereo not shown) gave an IC50 of 0.15 µM (HDAC9; enzyme activity, inhibitor).
C[C@@H](Nc1nc2c(cnn2C(C)(C)C)c(=O)n1Cc1cccc(F)c1)c1ccc(Cl)cc1 gave an IC50 of 0.995 µM (cAMP and cAMP-inhibited cGMP 3',5'-cyclic phosphodiesterase 10A (PDE10A, Homo sapiens, UniProt Q9Y233); enzyme activity, inhibitor).
For COc1ccc(C(=O)/C=C/c2ccc(Br)cc2F)c(OC)c1, the IC50 was > 100 µM (P4HB; enzyme activity, inhibitor).
OC[C@H]1[C@@H](O)[C@H](O)[C@@H](O)CN1CCCCCOCc1ccccc1 gave an IC50 of 10 µM (GBA1 R534H; inhibitor, 4MU-β-D-glucopyranoside; with: 4MU-β-D-glucopyranoside).
CC(=O)OCC1C=C(C2(C)CCCCC2)CCC1COC(C)=O (single isomer, unassigned; (+)) has an IC50 of < 0.5 µM (Peptidyl-prolyl cis-trans isomerase F, mitochondrial (PPIF, Homo sapiens, UniProt P30405); enzyme activity, inhibitor).
The IC50 of CC(=O)OC1CCC2(C)C(CCC3(C)C2CC=C2C4C(C)C(C)CCC4(C(=O)O)CCC23C)C1(C)C (stereo not shown) is reported as > 100 µM (UDP-glucuronosyltransferase 1A6 (UGT1A6, Homo sapiens, UniProt P19224); enzyme activity, inhibitor).
The IC50 of COc1ccc(C[C@H](N)C(=O)N[C@H]2[C@@H](O)[C@H](n3cnc4c(N(C)C)ncnc43)O[C@@H]2CCl)cc1 is reported as 3.9 µM (Puromycin-sensitive aminopeptidase (Homo sapiens, UniProt P55786); enzyme activity, inhibitor, fluorescence).
Cc1cnc(Nc2ccc3c(c2)CCN(C(=O)/C=C/C(=O)C2CCC(C)CC2)C3)nc1-c1cnn(C(C)C)c1 (stereo not shown) gave an IC50 of > 0.03 µM (JAK3; enzyme activity, inhibitor, ADP detection).
For O=C(O)Cc1cc2c(cc1C(=O)c1cccc(Br)c1)OCO2, the IC50 was 4.47 µM (Gria1/Gria2; ion current, antagonist, patch clamp).
For O[C@H]1[C@H](O)[C@@H](O)c2[nH]cnc2[C@@H]1O, the IC50 was 21.8 µM (GBA1 R534H; 30 min preincubation, pH 5.2, with: 200 µM 2,4-dinitrophenyl-β-D-glucopyranoside).
The IC50 of CC1(C)CCC(CN2CCN(c3ccc(C(=O)NS(=O)(=O)c4ccc(NCC5CCOCC5)c([N+](=O)[O-])c4)c(Oc4cnc5[nH]ccc5c4)c3)CC2)=C(c2ccc(Cl)cc2)C1 is reported as > 10 µM (Bcl-2-related protein A1 (Homo sapiens, UniProt Q16548); binding, inhibitor, TR-FRET competition; with: BAX-derived peptide).
CC(C)=CCC/C(C)=C/CC/C(C)=C/COCCCCCN1C[C@H](O)[C@@H](O)[C@H](O)[C@H]1CO gave an IC50 of 1.5 µM (GBA1 R534H; inhibitor, 4MU-β-D-glucopyranoside; with: 4MU-β-D-glucopyranoside).
COC(=O)Cc1cc2c(cc1C(=O)c1ccccc1Cl)OCO2 gave an IC50 of 5.29 µM (Gria1/Gria2; ion current, patch clamp).

Some of these lines once more:
Nc1ccc(-c2ccc(F)cc2)cc1NC(=O)C1CCOCC1 gave an IC50 of > 33.3 µM (HDAC9; enzyme activity, inhibitor).
For COc1cccc(/C=C/C(=O)c2ccc(Cl)c(Cl)c2)c1OC, the IC50 was 78 µM (P4HB; enzyme activity, inhibitor).
The IC50 of CC[C@H](C)C(=O)O[C@H]1C[C@@H](C)C=C2C=C[C@H](C)[C@H](CC[C@@H]3CC=CC(=O)O3)[C@H]21 is reported as 0.95 µM (Cystic fibrosis transmembrane conductance regulator (CFTR, Homo sapiens, UniProt P13569); apical chloride current, inhibitor; T84, basolaterally permeabilized; with: forskolin, phosphatase inhibitors 1 mM).
CC(C)C[C@H](NC(=O)[C@H](Cc1ccc(CN)cc1)NC(=O)[C@H](Cc1ccccc1)N=[N+]=[N-])C(=O)N[C@@H](CC1CCCC2CCCCC21)C(=O)[C@@]1(C)CO1 (stereo partly shown) has an IC50 of > 10 µM (Proteasome subunit beta type-8 (PSMB8, Homo sapiens, UniProt P28062); enzyme activity, inhibitor; lysate).
The IC50 of O=C(/C=C/c1ccccc1)c1ccc2ccccc2c1 is reported as 8.4 µM (P4HB; enzyme activity, inhibitor).
For O=C(O)Cc1cc2c(cc1C(=O)c1cccc(Cl)c1)OCO2, the IC50 was 4.17 µM (Gria1/Gria2; ion current, antagonist, patch clamp).
